Assay results collected from several papers.
Numbered parts are unrelated; each lists some results of a single study.

Study 1
Target: Histone acetyltransferase KAT6A, winged helix 1, GST fusion (KAT6A, Homo sapiens, UniProt Q92794, residues 1-85)
Method: protein binding microarray
Molecule type: double-stranded DNA, one strand shown
Medium: in vitro
Tested at: not given
Setting: 8-mer, flanks averaged, mean of 2 arrays, mostly near background
Baseline: not given
Reading: higher = stronger binding
Endpoint: E-score
Construct (chain): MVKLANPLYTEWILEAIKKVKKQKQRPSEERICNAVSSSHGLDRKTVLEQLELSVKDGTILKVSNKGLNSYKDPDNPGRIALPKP
Oligonucleotide = AAAATATG; result = -0.266
Oligonucleotide = CACAGGAG; result = -0.111
Oligonucleotide = TATTAAGA; result = -0.0953
Oligonucleotide = GCCTCAGA; result = 0.161

Study 2
Target: Prothrombin, mature alpha-thrombin (F2, Homo sapiens, UniProt P00734)
Method: aptamer microarray, sandwich
Molecule type: DNA with 2'F-ANA
Medium: in vitro
Tested at: 200 nM
Setting: whole 15-mer aptamer, many near background
Added: Cy3 exosite-II aptamer, 400 nM
Reading: higher = stronger binding
Endpoint: mean fluorescence intensity
Oligonucleotide = GGTTGGTGTGGTTGG (2'F-ANA at 3 4 5 7 8 9 11); result = 92.2 a.u.
Oligonucleotide = GGTTGGTGTGGTTGG (2'F-ANA at 1 2 3 4 5 9 10 11 12 14); result = 63.8 a.u.
Oligonucleotide = GGTTGGTGTGGTTGG (2'F-ANA at 1 4 5 6 8 9 10 11 12 14); result = 49.9 a.u.

Study 3
Target: Max dimerization protein 1, bHLH-zipper, MAX partner unstated (MXD1, Homo sapiens, UniProt Q05195, residues 56-136)
Method: protein-binding microarray
Molecule type: double-stranded DNA, one strand shown
Medium: in vitro
Tested at: not given
Setting: k-mer, scored over probes, only values ≥0.25
Reading: higher = stronger binding
Endpoint: E-score
Residues (chain): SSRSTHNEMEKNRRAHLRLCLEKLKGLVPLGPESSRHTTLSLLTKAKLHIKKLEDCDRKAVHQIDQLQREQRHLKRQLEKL
Oligonucleotide = AAGCATGC; result = 0.399
Oligonucleotide = CGCACGCG; result = 0.398
Oligonucleotide = ACAACACG; result = 0.351

Single results of other studies
Molecule = PhoQ, residues 284 288 289 292 302 303 AQGLTV; target = PhoP, residues 12 14 15 18 19 QYFSL (Escherichia coli, UniProt P23836); assay = Sort-seq, measured: YFP reporter; system = E. coli; setting = PhoQ-PhoP variant library, added: 10 µM Mg2+; scale = baseline: high Mg2+ state, higher = stronger signaling; endpoint = fold induction; result = 4.88

Repeated from above (study 1):
Oligonucleotide = GCCTCAGA; result = 0.161
Oligonucleotide = CACAGGAG; result = -0.111
